{"data": "Measured values pooled from the literature", "cell line": "NCI-H522"}
{"SMILES": "CC(=C(c1ccc(O)cc1)c1ccc(Cl)cc1)c1ccc(Cl)cc1", "test": "cell growth or viability, SRB", "measurement": "GI50", "result": "850 nM"}
{"SMILES": "COc1cc(CNC(=O)C[C@H](C)CCC=C(C)C)ccc1OCc1cn(-c2ccccc2[N+](=O)[O-])nn1", "test": "SRB", "conditions": "10 µM, 48 h", "measurement": "growth percent", "result": "61.9%"}
{"SMILES": "CCC(=C(c1ccc(Cl)cc1)c1ccc(OCCCN(C)C)cc1)c1ccc(OC)cc1", "test": "cell growth or viability, SRB", "measurement": "GI50", "result": "6560 nM"}
{"SMILES": "C1=[N+]2CCCC[N+]3=Cc4ccc5[n]4[Au-]23[n]2c1ccc2-c1nc2ccccc2nc1-5.F[P-](F)(F)(F)(F)F", "test": "cell growth", "measurement": "IC50", "result": "280 nM"}
{"SMILES": "COc1cc(CNC(=O)C[C@H](C)CCC=C(C)C)ccc1O", "test": "SRB", "conditions": "10 µM, 48 h", "measurement": "growth percent", "result": "86.9%"}
{"SMILES": "CC/C=C\\C/C=C\\C/C=C\\C/C=C\\C/C=C\\C/C=C\\CCC(=O)Nc1ccn(C2OC(CO)C(O)C2(F)F)c(=O)n1 (stereo not shown)", "test": "cell growth or viability, SRB", "measurement": "GI50", "result": "28 nM"}
{"SMILES": "CC(=O)OC[C@H]1O[C@@H](Sc2sc(C(=O)c3ccc(C)cc3)c(N)c2-c2nc3ccccc3s2)[C@H](OC(C)=O)[C@@H](OC(C)=O)[C@@H]1OC(C)=O", "test": "SRB", "conditions": "10 µM, 48 h", "how to read": "relative to: untreated", "measurement": "growth", "result": "82.1%"}
{"SMILES": "COc1ccc(C2=Nn3c(NN=C4C(=O)N(Cc5ccccc5)c5ccc(Cl)cc54)nnc3SC2)cc1", "test": "cell growth or viability, SRB", "conditions": "10 µM", "measurement": "inhibition", "result": "35%"}
{"SMILES": "COc1cc(CNC(=O)C[C@H](C)CCC=C(C)C)ccc1OCc1cn(-c2ccc(Cl)cc2Cl)nn1", "test": "SRB", "conditions": "10 µM, 48 h", "measurement": "growth percent", "result": "55.4%"}
{"SMILES": "CC(=O)OC[C@H]1O[C@@H](Sc2sc(C(=O)c3ccc(Br)cc3)c(N)c2-c2nc3ccccc3s2)[C@H](OC(C)=O)[C@@H](OC(C)=O)[C@@H]1OC(C)=O", "test": "SRB", "conditions": "10 µM, 48 h", "how to read": "relative to: untreated", "measurement": "growth", "result": "63.8%"}
